Published values pooled from the literature.
Parts stem from different laboratories: compare values within a part only. Substitutions count along the parent as printed.

Study 1
Target: ABI1, truncated, D143A, DHFR fusion (Arabidopsis thaliana)
Technique: DHFR PCA, deep sequencing
Matrix: yeast
Setting: methotrexate growth selection, single substitutions
With: (+)-ABA 58 µM
Relative to: wild-type fitted maximum
Direction: higher = stronger binding
Starting sequence: PYL1, truncated, DHFR fusion (Arabidopsis thaliana); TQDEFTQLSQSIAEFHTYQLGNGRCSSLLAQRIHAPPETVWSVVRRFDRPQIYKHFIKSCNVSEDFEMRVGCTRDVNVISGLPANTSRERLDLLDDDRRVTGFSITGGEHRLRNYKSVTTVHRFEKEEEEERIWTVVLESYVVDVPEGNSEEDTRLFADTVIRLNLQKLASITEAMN; partner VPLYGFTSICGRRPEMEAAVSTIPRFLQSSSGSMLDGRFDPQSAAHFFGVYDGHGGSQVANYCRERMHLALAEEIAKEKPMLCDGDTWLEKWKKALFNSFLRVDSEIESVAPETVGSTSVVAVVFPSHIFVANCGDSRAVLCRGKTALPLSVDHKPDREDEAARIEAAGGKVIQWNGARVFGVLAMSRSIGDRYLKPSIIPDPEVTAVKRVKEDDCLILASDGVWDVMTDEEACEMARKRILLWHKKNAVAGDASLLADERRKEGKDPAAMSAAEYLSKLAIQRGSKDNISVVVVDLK
`E38V` — result for “relative binding score”: 41.3%.
`T119F` — result for “relative binding score”: 13.8%.
`R32E`: “relative binding score” 87.4%.
`Q31N` — result for “relative binding score”: 22.8%.

Study 2
Target: Histone acetyltransferase KAT6A, both winged helices, GST fusion (KAT6A, Homo sapiens, UniProt Q92794, residues 1-181)
Technique: protein binding microarray
Form: double-stranded DNA, one strand shown
Matrix: in vitro
Concentration: not given
Setting: 8-mer, flanks averaged, mean of 2 arrays, mostly near background
Relative to: not given
Direction: higher = stronger binding
Residues (chain): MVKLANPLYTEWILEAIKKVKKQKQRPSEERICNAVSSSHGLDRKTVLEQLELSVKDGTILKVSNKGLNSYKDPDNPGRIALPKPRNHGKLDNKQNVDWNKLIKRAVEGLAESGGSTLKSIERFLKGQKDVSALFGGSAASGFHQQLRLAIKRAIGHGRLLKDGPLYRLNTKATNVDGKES
For `CATCTCAA`, the E-score was -0.0876.
The E-score of `GGTTCGGA` is reported as 0.0712.
For `GACGACAC`, the E-score was 0.103.
For `AGCATTAG`, the E-score was -0.0411.
The E-score of `ACTGCCCC` is reported as -0.0429.

Study 3
Target: Protein max, full length (MAX, Homo sapiens, UniProt P61244-2, residues 1-151)
Technique: protein-binding microarray
Form: double-stranded DNA, one strand shown
Matrix: in vitro
Concentration: not given
Setting: k-mer, scored over probes, only values ≥0.25
Direction: higher = stronger binding
With `CGACCACG` the E-score was 0.392.
`CCCCGCGC` gave an E-score of 0.265.
`ACGAGGAG` has an E-score of 0.358.
With `AGCACGAT` the E-score was 0.275.
For `GGCGTGAC`, the E-score was 0.358.

Single results of other studies
For `PhoQ, residues 284 288 289 292 302 303 ALASRC`, the fold induction was 12.2 (PhoP, residues 12 14 15 18 19 VQGLL (Escherichia coli, UniProt P23836); Sort-seq, item: YFP reporter; E. coli; PhoQ-PhoP variant library, with: 10 µM Mg2+; relative to: high Mg2+ state, higher = stronger signaling).

For quick reference, copied from above (single results of other studies):
For `PhoQ, residues 284 288 289 292 302 303 ALASRC`, the fold induction was 12.2 (PhoP, residues 12 14 15 18 19 VQGLL (Escherichia coli, UniProt P23836); Sort-seq, item: YFP reporter; E. coli; PhoQ-PhoP variant library, with: 10 µM Mg2+; relative to: high Mg2+ state, higher = stronger signaling).
